Assay results pooled from the literature.
Every numbered part comes from another study and shows a few of its results, in no order. Positions count from the first letter of the parent shown.

Sample 1 — technique: protein-binding microarray; molecule type: double-stranded DNA, one strand shown; matrix: in vitro; tested at: 250 nM; setting: 60-bp whole probe; together with: salmon DNA 0.4 mg/ml; relative to: random background probes; reading: higher = stronger binding; constant ends, left off below: GCCTAGCAC … GTCTTGATTCGCTTGACGCTGCTG
Target: Interferon regulatory factor 5, full length, phosphomimetic (IRF5, Homo sapiens, UniProt Q13568-2, residues 1-514, K96S/S451D/S453D/S456D/S462D)
Sequence | log fluorescence [z-score]
GACGGACTGGGGTTACGGGACGTGCTA | -0.633
GACGATTTCAGTATCGAGGCGTGCTAG | 2.76
GACGGTTCCGTTTTCCTGACGTGCTAG | 0.656
TCAGCCATATTTATCTGACTGTGCTAG | 0.0764
TTAGTTTTCAGTATCGATTAGTGCTAG | 8.88
TTAGACCTCAGACTGGATTAGTGCTAG | -0.445
GACGATACCAGTTTCGAGACGTGCTAG | 6.12
TAAGGACTGGGGACTGGGTTAGTGCTA | -0.795
GACGGTATCCTGTTCCTGACGTGCTAG | 0.0741
TTTCCTTTATGTACTCTCTACGTGCTA | 3.56
GACGGTTTCCTACTGCCGACGTGCTAG | 0.358
GACGAACTGAGTTTCGATACGTGCTAG | 9.16
TGGATACTTTGCTGAACATCGTGCTAG | -0.112
GACGGTTTCGGGTATCGGGAGGTGCTA | 8.16
GACGAACCGGGGTTTCGAGACGTGCTA | 1.19
GACGGTATCCTTCTCCTTACGTGCTAG | 0.305
TTGACTCTTTCTGTCAGTTTGTGCTAG | 3.57
TTAGGTTTCGGTTTCGGGTAGTGCTAG | 11.5
GACCATCTCAGACTGGAGACGTGCTAG | -0.671
ATAGGTATCGGTTTCGGTTAGTGCTAG | 11
GACGGACTGGACTTTCGTGACGTGCTA | 1.12
TTAGGACTGGGGTAACGGTTAGTGCTA | -0.663
AGCAGTTGGACCTCTCAGCCAGTGCTA | -0.785
GACCAACTGAGTATCGAGACGTGCTAG | 1.53
GAAGGTTTCGGTATCGGGACGTGCTAG | 9.73

Sample 2 — technique: DHFR PCA, deep sequencing; matrix: yeast; together with: (+)-ABA 0.0091 µM; relative to: wild-type fitted maximum; reading: higher = stronger binding
Target: ABI1, truncated, D143A, DHFR fusion (Arabidopsis thaliana)
Setting: methotrexate growth selection, single substitutions
Starting sequence: PYL1, truncated, DHFR fusion (Arabidopsis thaliana); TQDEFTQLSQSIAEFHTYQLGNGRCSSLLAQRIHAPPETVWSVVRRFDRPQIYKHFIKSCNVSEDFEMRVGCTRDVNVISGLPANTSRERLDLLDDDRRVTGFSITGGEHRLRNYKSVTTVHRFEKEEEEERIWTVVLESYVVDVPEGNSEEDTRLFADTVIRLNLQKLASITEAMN
Variant | relative binding score
I162H | 4.99%
S80K | 1.66%
K116D | -2.09%
E67Y | 1.53%
G148R | -2.65%
D153G | 3.12%
E125I | 22.6%
D65F | 5.86%
C72L | -0.0219%
V100K | -5.98%
V70K | 3.67%
S9P | 3.61%
T1H | 23.2%
V145C | -0.448%
L169W | -2.05%
V142W | -1.05%
L112F | 4.9%
L29Y | 0.449%
L164S | 4.28%
Q19T | 31.8%
E147R | 3.26%
D97T | 40.4%
S9M | 23.4%
Q10F | 0.303%
Q10M | 7.15%

Sample 3 — technique: RNA Bind-n-Seq; molecule type: RNA; matrix: in vitro; tested at: not given; relative to: input RNA pool; reading: higher = stronger binding
Target: RING finger protein unkempt homolog, zinc fingers 1-6, GST-SBP tag (UNK, Homo sapiens, UniProt Q9C0B0, residues 30-357)
Chain of UniProt Q9C0B0 (30-357, looked up): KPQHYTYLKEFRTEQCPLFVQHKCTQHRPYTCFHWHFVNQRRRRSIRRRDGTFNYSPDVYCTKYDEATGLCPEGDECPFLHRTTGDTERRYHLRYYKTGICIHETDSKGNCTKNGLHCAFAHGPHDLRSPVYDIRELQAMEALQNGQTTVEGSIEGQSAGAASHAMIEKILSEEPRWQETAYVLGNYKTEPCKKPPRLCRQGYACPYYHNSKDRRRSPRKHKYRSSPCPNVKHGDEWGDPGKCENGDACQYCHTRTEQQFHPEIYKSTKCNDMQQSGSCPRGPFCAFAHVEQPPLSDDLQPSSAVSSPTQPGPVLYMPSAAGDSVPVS
Setting: RNA with constant flanks, human and mouse sites, ends assumed
Constant ends, left off below: GGGAGUUCUACAGUCCGACGAUC … CAACAGAGGAUUGAGCAUCA
Sequence | bound/input enrichment [ratio]
UCACCACAGAGCAUUUUAGAUGAUGUUGCCAUGGUACUAGAUGAAGAAGCAGAAGUUUUUAUAGUCAAAAUGUGGAGAUUAUUGAUAUAUGAAACAGAAGCCAAGAAAAUUGGCCUUGUG | 0.595
ACUAGCACAUUUUCCGAGUACACAGUUGUGGCUGACAUCUCUGUUGCUAAAAUCGAUCCUUCGGCCCCUUUGGAUAAAGUCUGCCUUCUCGGCUGUGGUAUUUCAACUGGCUACGGGGCU | 0.829
CGCAUGCAGCAGAUGGUGGGCCAGCUGGGCAUCCUGACGCCGUCCCUCACAUUGCCCUUCAGCCCCUACAGUGCCUACGCCCAGGCUCUCAUGCAACAGCAGACAACAGUCCUGUCCACC | 0.192
AUGAAGCUUUUAAAAUCUACAAUUUCUUCUUUAAAAAUAUUUAUUAAUGUGAAUGGAAUAUAACAAUUCAGCUUAAUUCCCCAACCUUAUUCUGUGUGUAGACAUUGUAUUCCACAAUUU | 1.78
GAGCAGAGAGUGGUGAGGCCAGCCACUGCCUGUGCGUGCAGUGCAGUGUUGGUAAGAGAAGCCUACCUAGGAGCUGGUGAUGAUGAAGGCUGGGCUGGGAAAGCAUUCUCUGUCCUGCUC | 0.14
CCUGGCCCCAGCAGCGGCGGCGGCGAGGCCCUGCGGAGCCCGCCAGCGCCCUCUCGGCCUCUUCACUUCUCUGACCGCGGUGUCCGGGACUACGUGAGAACCAUGAGUGGCAACAACUUG | 0.106
CAAGGCAUCUGUCCUGAAAGCUGCUAAUCUAUGGUCUAGUGAAUUUAUAUUAUAUGCAGAUAGUAAUGAACUGGGAGAUCAAUGAACAGCAAGGGUGAUACCACAUUGCAAAAUGGAAGC | 0.365
GUCUACUGGAACUCGGCGAAUAAGAGGUUCCAGGCAGAGGGCGGUUACGUGCUUUAUCCUCAGAUCGGGGACCGGCUAGAUCUACUUUGUCCCCGGGCUCGGCCUCCUGGCCCCCACUCC | 0.396
GCUCUUGCAUAUGGAAUCUAUAAGCAGGAUCUUCCUGCCUUAGAAGAGAAACCAAGAAAUGUAGUUUUUGUAGACAUGGGCCACUCUGCUUAUCAAGUUUCUGUAUGUGCAUUUAAUAGA | 0.36
AUGGGCCUAUUUGUUUGGUGCUGGCACCAACUCGGGAACUGGCCCAACAGGUGCAGCAAGUAGCUGCUGAAUAUUGUAGAGCAUGUCGCUUGAAGUCUACUUGUAUCUACGGUGGUGCUC | 0.292
CCUAGUAAAGAUGUUGUGAUGGUACAUGAACCAAAACAAAAAGUAGAUUUAACAAGGUACCUAGAAAACCAAACAUUUCGUUUUGAUUAUGCCUUUGAUGACUCAGCUCCUAAUGAAAUG | 10.2

Sample 4 — target: CCNB1, cyclin fold, Cln2 fusion (human); technique: yeast growth competition, sequencing; matrix: yeast; setting: weak parent motif; relative to: not given; reading: higher = stronger binding
Starting sequence: CDKN1B docking peptide (human); PSACRNLFGPVDH
Variant | normalised enrichment score
N6D | 0.0553
P1C | 0.0177
N6P | -0.514
S2G | -0.317
H13W | 0.68
G9N | 0.289
G9K | 1.53
H13A | 0.55
R5Y | 0.379
A3C | 0.818
N6W | 0.00689
P10H | -0.088
N6T | 0.372
N6S | 0.0344
C4M | 0.156
L7R | 0.294
S2H | 0.38
R5L | 0.316

Sample 5 — target: NFE2L3, bZIP domain (human); technique: DHFR protein complementation; matrix: yeast; relative to: wild-type JUN-FOS pair; reading: higher = stronger binding
Setting: single substitutions, most at no-binding floor
Starting sequence: JUN, bZIP domain (human); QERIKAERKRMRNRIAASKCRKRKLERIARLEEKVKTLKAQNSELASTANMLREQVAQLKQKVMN; partner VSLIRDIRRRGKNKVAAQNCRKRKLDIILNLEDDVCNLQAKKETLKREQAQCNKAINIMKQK
Variant | binding fitness [natural log]
A29F | -1.29
L45T | -1.51
Q41G | -1.5
V35Y | -1.46
E32L | -1.4
A46S | -1.44
Q55G | -1.5
E32P | -1.49
S47E | -1.61
K39M | -1.39
L31Q | -1.55
E54R | -1.54
E33C | -1.57
N42H | -1.5
K34G | -1.43
Q41W | -1.36
E54H | -1.52

For quick reference, copied from above (sample 1):
Sequence | log fluorescence [z-score]
GACGGACTGGGGTTACGGGACGTGCTA | -0.633
GACGATTTCAGTATCGAGGCGTGCTAG | 2.76
GACGGTTCCGTTTTCCTGACGTGCTAG | 0.656
TCAGCCATATTTATCTGACTGTGCTAG | 0.0764
TTAGTTTTCAGTATCGATTAGTGCTAG | 8.88
TTAGACCTCAGACTGGATTAGTGCTAG | -0.445
GACGATACCAGTTTCGAGACGTGCTAG | 6.12
TAAGGACTGGGGACTGGGTTAGTGCTA | -0.795
